Experimental data collected from several papers.
Every numbered part comes from another study and shows a few of its results, in no order.

Block 1 — technique: RNA Bind-n-Seq; molecule type: RNA; sample: in vitro; concentration: not given; setting: RNA with constant flanks, ends assumed; baseline: input RNA pool; reading: higher = stronger binding
Target: RING finger protein unkempt homolog, zinc fingers 1-6, GST-SBP tag (UNK, Homo sapiens, UniProt Q9C0B0, residues 30-357)
All sequences stand within: GGGAGUUCUACAGUCCGACGAUC … CAACAGAGGAUUGAGCAUCA
Residues (chain): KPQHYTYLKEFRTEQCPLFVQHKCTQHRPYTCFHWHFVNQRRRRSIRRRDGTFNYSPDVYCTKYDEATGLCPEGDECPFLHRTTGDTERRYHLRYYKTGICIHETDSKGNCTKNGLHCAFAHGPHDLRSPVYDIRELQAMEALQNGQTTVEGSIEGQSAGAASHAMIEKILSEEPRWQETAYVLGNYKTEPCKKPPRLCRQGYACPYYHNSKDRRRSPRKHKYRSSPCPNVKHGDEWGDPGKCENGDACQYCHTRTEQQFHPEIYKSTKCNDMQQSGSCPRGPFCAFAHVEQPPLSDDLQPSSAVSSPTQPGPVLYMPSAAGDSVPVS
Sequence	bound/input enrichment [ratio]
CCUGGGCUUGCGCUGCUGUGCCAGCCGCAUCCAGGGCUCUCCCCGCUCUCCGCAGGCCUUUACCGAGGCGGCCAGGGCAUGGAGCCCCUUCCAGCAAGAGCCAUGGGCACUCCGGCUCAC	0.0873
CUUAGAGAGCUUGAAGCUAAAGCCUACAAACAAAUUGAGGCCUGUGGUGGGAACCCUUCACCCGUGGCUUUAGUCAAGCACUUAAGUAAGAUGUUCACAGAAGAAAAUAAAUAAUACUAU	0.829
GGACUGGAGUACCUUGCGUGCAGUUAUGUCGGCGUCGGUAGUGUCUGUCAUUUCGCGGUUCUCCGAAGAGUACUUGAGCUCCACUCCGCAGCGUCUGAAGUUGCUGGACGCGUACCUGCU	0.0812
UAUGCAGGGGACGGUCCCGGCCCUGUUCGUCCAUUCUGUAAAUAACUUGUAAAUAGUCUUCCGCAUUCCUCUUGUAACAAGAUUAAUUUUUAUGAAAUAAAUUAUAUUUCCUAGUCUAAU	1.33
GUCAACCGUGUUACUAUACUCUGUGACAAAUUUAGUGGCCAUCCCAAAGGGUUUGCAUAUACCGAGUUCUCGGACAAAGAGUCAGUGAGGACGUCCCUGGCCUUAGAUGAGUCCCUGUUC	0.711
GGGGAGAAACCUUAUGAAUGCGUUCAGUGUGGGAAAUCGUAUAGUCAAAGCUCAAAUCUUUUCCGACAUCAGAGAAGACACAAUGCAGAAAAACUUCUGAAUGUUGUGAAAGUUUAAGAA	0.444
CUCCAGGUUCCAGUAAAAUUCUUCUGACCGAAACCAAUGUGGGUGUUAGAAAAAUUACCAUACCGCUUAAUAUGUUUAUUAGUUCUCUUUGGAAAAAAACUACCACUGUGGUCUUAAAAG	0.352
AUGAAGGAGGCAUUUGGCUUUAUUGAAAGAGGUGAUGUUGUAAAAGAGAUAUUCUUUCACUACCGUGAAUUUAAGGGUGACUUAGAAACCUUACAGCCUGGCGAUGAUGUGGAAUUCACA	0.208
UGUCCCUCUGCCCCAUCCCUCACAUGGGAUGGUCCCUAGGCCAGGCCUCUCUUCUCUGCCCCGCUACCCCUGUGCUACCUCCCACAUGCUGGGUUCUGGAAUGCAGAGCCUAGGCUCUCU	0.212
GACAGCAGUAGGGAAAUUAGGUGCAGAAUGUUAAGUUCAACCACGGGGCUUUCACCAGGUCCGGUUGUCAAACUCCCCAACAUUGGCAGCUACUGUUUGGGUGGACCCCACACUUGCCUG	0.36
UGUCUGGCCCAGGUGCUGCAGAAGGAUGUGGGAAAGCGGCUGCAGGUUGGCCAGGAACUCACCGACUAUUUCUCAGACAGACAGAAGUCUGCUGACCUUGAGCACGACCAGACCCUGUUG	0.149

Block 2 — technique: protein-binding microarray; molecule type: double-stranded DNA, one strand shown; sample: in vitro; concentration: 2200 nM top; setting: 60-bp whole probe; added: salmon DNA 0.4 mg/ml; baseline: random background probes; reading: higher = stronger binding; all sequences stand within: GCCTAGCAC … GTCTTGATTCGCTTGACGCTGCTG
Target: Interferon regulatory factor 7, full length, phosphomimetic (IRF7, Homo sapiens, UniProt Q92985, residues 1-503, S471D/S472D/S475D/S476D/S477D/S483D/S484D/S487D)
UniProt Q92985, sequence (whole entry, unmodified, looked up): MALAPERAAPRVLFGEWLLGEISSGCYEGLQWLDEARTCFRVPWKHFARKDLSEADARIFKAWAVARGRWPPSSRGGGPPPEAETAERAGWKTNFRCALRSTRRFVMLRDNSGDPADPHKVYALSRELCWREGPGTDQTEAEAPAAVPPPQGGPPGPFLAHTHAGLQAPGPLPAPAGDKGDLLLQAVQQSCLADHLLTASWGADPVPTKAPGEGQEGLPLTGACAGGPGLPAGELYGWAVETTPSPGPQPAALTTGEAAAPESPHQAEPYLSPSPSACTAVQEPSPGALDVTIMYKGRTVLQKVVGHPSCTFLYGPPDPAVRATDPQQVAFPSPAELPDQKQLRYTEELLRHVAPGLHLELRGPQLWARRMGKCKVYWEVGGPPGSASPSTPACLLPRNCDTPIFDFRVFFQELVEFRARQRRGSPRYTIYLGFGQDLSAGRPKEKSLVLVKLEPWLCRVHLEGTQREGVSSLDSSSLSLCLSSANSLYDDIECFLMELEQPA
Sequence	fitted relative affinity [z-score]
GACGACATCGGGTATCGAGACGTGCTA	-0.142
TTAGATATCAGGCTGGATTAGTGCTAG	-0.125
GCCCTTATCCAATCAGAATTGTGCTAG	1.11
TCATGTTTTTCATTGTTACTGTGCTAG	2.03
TTAGAACTGAGAATCGATTAGTGCTAG	-0.713
TTATATTTCAGTTTCGATTAGTGCTAG	8.48
GACGGTCTCGGGCTGGGGACGTGCTAG	-0.541
ATGACTCTGCCTCTAACTGCGTGCTAG	0.842
TATGTTCCCTATTTAAGGCTGTGCTAG	1.81
CTCCAACAAGGCTATCCCTCGTGCTAG	0.456
GACGGTATCGGTTTTCGGGACGTGCTA	2.67
TTAGGTCTCGGACTGGGGTAGTGCTAG	-0.276
TTAGGAATGGGACTGGGTTAGTGCTAG	-0.678
TTAGATATCGGGACTGGCTTAGTGCTA	-0.496
CTCTCCATGTGTTTAAAGACGTGCTAG	1.13
TTAGCACTGGACTATCGGTTAGTGCTA	-0.256
AGAGCTTGTAGCCATCTTTGGTGCTAG	-0.138
TTAGATATCGGCTTTCGATTAGTGCTA	2.78
TTAGGTTTCGCCTTTCGGTTAGTGCTA	7.72
TTAGGACTGCTGATCCTTTAGTGCTAG	-0.0626
GACGAACTGAGACCGGAGACGTGCTAG	-0.263
TTAGGTATCAGTATCGATTAGTGCTAG	0.273
GACGGTTTCGACTTTCGGGATGTGCTA	9.28
TTCATTTTCCAAATGCCCTCGTGCTAG	3.7
GTCGAACTGGGGTTTCGAGACGTGCTA	1.71

Block 3 — technique: protein binding microarray; molecule type: double-stranded DNA, one strand shown; sample: in vitro; concentration: not given; baseline: not given; reading: higher = stronger binding
Target: Histone acetyltransferase KAT6A, both winged helices, GST fusion (KAT6A, Homo sapiens, UniProt Q92794, residues 1-181)
Setting: 8-mer, flanks averaged, mean of 2 arrays, mostly near background
Construct (chain): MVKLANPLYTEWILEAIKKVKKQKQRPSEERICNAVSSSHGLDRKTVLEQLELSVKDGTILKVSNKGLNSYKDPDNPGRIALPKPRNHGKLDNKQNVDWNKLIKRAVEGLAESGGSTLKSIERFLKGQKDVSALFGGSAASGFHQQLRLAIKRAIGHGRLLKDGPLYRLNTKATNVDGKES
Sequence	E-score
ATGTGATG	-0.202
ACGACAGG	-0.0774
CGGTATAA	0.111
ACGGCCGA	0.336
AAAAGGAC	-0.129
CCCTGCCC	-0.111
CACCACCA	-0.203
AACACTGC	0.0382
TGACGAAA	-0.119
CACTGGGA	-0.337
ATCTCCTC	-0.166
CCATGGAG	-0.145
ACCACGGA	0.175
AGGCTGTG	-0.151
GTACAGGA	-0.0962
CGACTCCC	-0.0194
ACGTCCGA	0.115
CAGGGGCC	0.0516
GTAGCTAC	0.0743
CTCTGACC	-0.0914
CATCCTAA	-0.017
GCGCTTGA	0.277
GACGCGGC	0.305

Block 4 — technique: RNA Bind-n-Seq; molecule type: RNA; sample: in vitro; concentration: 200 nM; setting: whole 134-nt RNA, ends assumed; added: 150 mM KCl; baseline: input library; reading: higher = stronger binding
Target: Ras GTPase-activating protein-binding protein 1, full length (G3BP1, Homo sapiens, UniProt Q13283)
UniProt Q13283, sequence (whole entry, looked up): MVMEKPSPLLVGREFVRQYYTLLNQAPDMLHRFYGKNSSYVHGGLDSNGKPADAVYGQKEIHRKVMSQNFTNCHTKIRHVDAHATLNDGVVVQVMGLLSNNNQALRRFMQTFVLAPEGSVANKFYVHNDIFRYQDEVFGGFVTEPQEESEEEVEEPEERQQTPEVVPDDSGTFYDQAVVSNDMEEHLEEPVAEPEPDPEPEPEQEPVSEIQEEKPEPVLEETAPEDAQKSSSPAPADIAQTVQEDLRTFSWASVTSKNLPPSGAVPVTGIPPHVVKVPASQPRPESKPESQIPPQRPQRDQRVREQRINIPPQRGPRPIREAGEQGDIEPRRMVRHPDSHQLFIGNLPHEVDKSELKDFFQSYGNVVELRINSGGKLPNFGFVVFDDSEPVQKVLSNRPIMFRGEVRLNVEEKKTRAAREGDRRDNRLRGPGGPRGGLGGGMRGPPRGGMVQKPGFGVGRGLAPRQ
All sequences stand within: GGGAGUUCUACAGUCCGACGAUC … UGGAAUUCUCGGGUGUCAAGG
Sequence	log2 enrichment
UCAAGUCCUGUGCUACACAUCGUAUGUACCGAAUCGGAAAGGUUUGGAAAAAGGAAAGUAUUAUGUUACGCCGUUCGGAUCUGCACUUCC	-0.944
CACAGACAACACGCACCCACACAGACACAGAGGGAAGGGGUUGGGAUGGGGACAGUGUGCACAGCAGGGCGGGGUAGGACCCCAGCCCCU	1.71
CUGUGCUACACAUCGUAUGUACCGAAUCGGAAAAAAAGGGGAAAAAAAGGGGAAAAAAAGGGAAAGUAUUAUGUUACGCCGUUCGGAUCU	-0.763
GUCCUGUGCUACACAUCGUAUGUACCGAAUCGGGGAAAGGGGAGGGGAAAAAAAGGGGAAAGUAUUAUGUUACGCCGUUCGGAUCUGCAC	0.313
CAAGUCCUGUGCUACACAUCGUAUGUACCGAAUCAAAUUUAAACCCAAACCCAAAAAAGUAUUAUGUUACGCCGUUCGGAUCUGCACUUC	-0.487
GCAGGAAGUAAAAACAAAUGGAAAUGCUUCGGAUAGUGGCAGGGGUGGGGGUUGCUAAGGAAAGGGUGGGAUGGGAGUGGGUAAAAAAUU	0.373
AAGUCCUGUGCUACACAUCGUAUGUACCGAAUCGGGUUUUUGGGAAAGGGAAAGGGAAAGUAUUAUGUUACGCCGUUCGGAUCUGCACUU	0.0252
AAGUCCUGUGCUACACAUCGUAUGUACCGAAUCGGGAAAAGGGAAAAGGGGAAAAGGAAAGUAUUAUGUUACGCCGUUCGGAUCUGCACU	-0.588
UCCUGUGCUACACAUCGUAUGUACCGAAUCAAAUUUUUUUAAACCCCCCCAAAUUUAAAAAAGUAUUAUGUUACGCCGUUCGGAUCUGCA	0.367
GCCACUGUUCACCAGUCCUACCCACACCAUGCCACACAGCUCCAUGCCCACCAGCCGCAGCCGGCUACCACGCCUACUGGAAGCCAGCCG	-0.217
UCCUGUGCUACACAUCGUAUGUACCGAAUCGGGGUUUUUGGGGAAAAAGGGGUUUGGGGAAAGUAUUAUGUUACGCCGUUCGGAUCUGCA	0.745
CUCAAGUCCUGUGCUACACAUCGUAUGUACCGAAUCGGUUUUUGGAGGAAAGGAAAGUAUUAUGUUACGCCGUUCGGAUCUGCACUUCCA	-0.385
CACAGACAACACGCACCCUCACAGACACAGAGGGAAGGGGUUGGGAUGGGGACAGGGUGCACAGCAGGGCGGGGUAGGACCCCAGCCCCU	2.01
CUCAAGUCCUGUGCUACACAUCGUAUGUACCGAAUCGGCCGGGCCGGGCCGGGGAAAGUAUUAUGUUACGCCGUUCGGAUCUGCACUUCC	-0.201

Block 5 — technique: aptamer microarray, sandwich; molecule type: DNA with 2'F-ANA; sample: in vitro; concentration: 200 nM; added: Cy3 exosite-II aptamer, 400 nM; reading: higher = stronger binding; sequence: GGTTGGTGTGGTTGG
Target: Prothrombin, mature alpha-thrombin (F2, Homo sapiens, UniProt P00734)
Setting: whole 15-mer aptamer, many near background
Modification	mean fluorescence intensity
2'F-ANA at 2 3 8 9 10 12 15	433 a.u.
2'F-ANA at 2 4 6 9 10 12 13 14 15	61.7 a.u.
2'F-ANA at 1 3 6 8 10 14	75.8 a.u.
2'F-ANA at 1 2 4 7 9 10 11 12	56.8 a.u.
2'F-ANA at 3 4 5 7 9 10 11 12 14	96.2 a.u.
2'F-ANA at 1 2 3 6 7 8 9 10 11 12	90.2 a.u.
2'F-ANA at 3 6 12 13 14 15	609 a.u.
2'F-ANA at 3 5 7 8 9 14 15	58.5 a.u.
2'F-ANA at 3 4 6 7 10 11 12 14	176 a.u.
2'F-ANA at 1 2 3 5 7 8 12 13 15	96.9 a.u.
2'F-ANA at 2 4 5 7 9 15	66.9 a.u.
2'F-ANA at 1 3 4 5 7 9 11	52.8 a.u.
2'F-ANA at 3 4 6 9 10 11 12	270 a.u.
2'F-ANA at 1 2 6 8 11 13 14	57.3 a.u.
2'F-ANA at 2 4 5 6 7 8 9 10	49.1 a.u.
2'F-ANA at 5 8 9 10 12 14	44.4 a.u.

Repeated from above (block 3):
Sequence	E-score
GTACAGGA	-0.0962
ACCACGGA	0.175
ACGGCCGA	0.336
CCCTGCCC	-0.111
CCATGGAG	-0.145
CGACTCCC	-0.0194
GACGCGGC	0.305
ACGACAGG	-0.0774
GCGCTTGA	0.277
ATGTGATG	-0.202
ACGTCCGA	0.115
TGACGAAA	-0.119
